Published values pooled from the literature.
Every numbered part comes from another study and shows a few of its results, in no order. Substitutions count along the parent as printed.

Sample 1 — target: CCND3, cyclin fold, Cln2 fusion (human); method: yeast growth competition, sequencing; sample: yeast; notes: weak parent motif; relative to: not given; direction: higher = stronger binding
Starting sequence: SGO1 docking peptide (human); PLAKRALKYTDEK
`PLAKRALAYTDEK [K8A]`: “normalised enrichment score” 0.303.
`PLAARALKYTDEK [K4A]`: “normalised enrichment score” 0.0958.
For `PLAKRALKYADEK [T10A]`, “normalised enrichment score” read 0.098.
Under “normalised enrichment score”, `PLAKRALKYTDAK [E12A]` is recorded as 0.247.
`PLAKRALKATDEK [Y9A]` — result for “normalised enrichment score”: 0.367.

Sample 2 — method: RNA Bind-n-Seq; form: RNA; sample: in vitro; concentration: 365 nM; relative to: no-protein control; direction: higher = stronger binding
Target: RNA binding protein fox-1 homolog 2, RRM domain, GST-SBP tag (RBFOX2, Homo sapiens, UniProt O43251-10, residues 100-194)
Notes: natural RNA segment, single round, ends assumed
Shared flanks, not repeated: GGGAGUUCUACAGUCCGACGAUC … UGGAAUUCUCGGGUGCCAA
Target sequence (chain): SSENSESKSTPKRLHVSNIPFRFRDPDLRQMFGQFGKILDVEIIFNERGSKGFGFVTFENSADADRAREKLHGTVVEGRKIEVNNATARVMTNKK
Under “RBNS enrichment (R)”, `GAGGAAGAAGGAAUUCACUAGGUUUUAACAAUGUUUCUCCUGCUCCUUUCUUCUCCCUAUCAGAGCUGACCCUACAAACACCUGUCCCCUGAGUUGUGUUGAAGUCCCCU` is recorded as 0.35.
`GACUUCCGUGCUGACUAAGCUGUGGCUCAGCAUUCCAUUGCACACUGGUGAAGUGAGUAGGGAUUGUUCCCAGGCAAGCAGCCGUACUCGUCAUGUUUUCUGCGGAAAAG`: “RBNS enrichment (R)” 0.305.
`GGGAGUUCCCAGCGCGAAAGGUCUGCUCCCGUUCCUCUGUCUCUGUGAAUAAAUGUGAGUUCGUGCACCCCCGAGUGAGGCUGUGUGUGGGGGAUUGGGUGAGUCAGGAU`: “RBNS enrichment (R)” 1.15.
`ACCUCAUUCAGAAAAUGUUGGAGUAUGAUCCAGCCAAAAGAAUUACUCUCAGAGAAGCCUUAAAGCAUCCUUUCUUUGACCUUCUGAAGAAAAGUAUAUAGAUCUGUAAU` — result for “RBNS enrichment (R)”: 0.405.
`UUAAAACAUUUAAAACACAAUGUUUUAAAUGUGGACAGAACUGUGUAAACCACAUAAUUUCUGUACAUCCCAAAGGAUGAGAAGUGUGACCUUCAAGAAAAUGGAAAUAU`: “RBNS enrichment (R)” 0.287.
`AGUUCUUUGCCAGGCUGCCUGCCGGAAAAGGUGUAGACAGAUGCUACUAAGACACCAAAUAGUGUCCAUGUAAGAUGGCAACUGCAUUAAAAAAAAAUCAGGAAAAACAA` — result for “RBNS enrichment (R)”: 0.375.
`CAGAUGAAUAUCUGACAAAGCAGUGGAGGUAUCCGAUUGAGCUUCAUGGCAUUGGUAAAUAUGGCAACGACUCCUACCGGAUCUUUUGUGUCAAUGAAUGGAAGCAGGUG` — result for “RBNS enrichment (R)”: 1.02.
For `AAAUGGGUAUGCAAGGCUGAGAUUUCUACAGCAAUAAAGGAGACACACACUGGGCCAGAGAGGCCUGCCUUCUGCCUGCUCUCCUGCACUGACCCUUUGGAGGGGGUCUC`, “RBNS enrichment (R)” read 0.712.

Sample 3 — method: DHFR PCA, deep sequencing; sample: yeast; added: (+)-ABA 0.0091 µM; relative to: wild-type fitted maximum; direction: higher = stronger binding
Target: ABI1, truncated, D143A, DHFR fusion (Arabidopsis thaliana)
Notes: methotrexate growth selection, single substitutions
Starting sequence: PYL1, truncated, DHFR fusion (Arabidopsis thaliana); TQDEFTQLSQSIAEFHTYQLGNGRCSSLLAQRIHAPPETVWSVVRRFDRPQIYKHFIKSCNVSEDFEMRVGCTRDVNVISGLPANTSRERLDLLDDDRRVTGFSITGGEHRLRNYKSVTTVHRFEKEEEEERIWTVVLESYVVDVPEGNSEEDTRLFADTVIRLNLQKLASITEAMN; partner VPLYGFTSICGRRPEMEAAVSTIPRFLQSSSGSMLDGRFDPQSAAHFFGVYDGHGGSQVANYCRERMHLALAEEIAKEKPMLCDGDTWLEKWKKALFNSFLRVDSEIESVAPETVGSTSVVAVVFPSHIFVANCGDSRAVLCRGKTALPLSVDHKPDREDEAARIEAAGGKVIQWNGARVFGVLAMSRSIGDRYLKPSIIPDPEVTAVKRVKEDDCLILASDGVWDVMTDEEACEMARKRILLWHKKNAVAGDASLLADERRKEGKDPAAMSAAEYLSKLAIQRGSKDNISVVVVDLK
Under “relative binding score”, `T101H` is recorded as 0.881%.
For `V142T`, “relative binding score” read 4.51%.
Under “relative binding score”, `K58N` is recorded as 3.97%.
For `L94P`, “relative binding score” read -8.14%.
`S117K` — result for “relative binding score”: -5.84%.
For `A35W`, “relative binding score” read -3.1%.
For `E174R`, “relative binding score” read -0.809%.
`D92A` — result for “relative binding score”: -2.99%.
`L156T`: “relative binding score” 12.4%.

Mixed results
The fold induction of `PhoQ, residues 284 288 289 292 302 303 SLKLQV` is reported as 2.39 (PhoP, residues 12 14 15 18 19 AQCLL (Escherichia coli, UniProt P23836); Sort-seq, item: YFP reporter; E. coli; PhoQ-PhoP variant library, added: 10 µM Mg2+; relative to: high Mg2+ state, higher = stronger signaling).

A few entries again (sample 2):
`CAGAUGAAUAUCUGACAAAGCAGUGGAGGUAUCCGAUUGAGCUUCAUGGCAUUGGUAAAUAUGGCAACGACUCCUACCGGAUCUUUUGUGUCAAUGAAUGGAAGCAGGUG` — result for “RBNS enrichment (R)”: 1.02.
`UUAAAACAUUUAAAACACAAUGUUUUAAAUGUGGACAGAACUGUGUAAACCACAUAAUUUCUGUACAUCCCAAAGGAUGAGAAGUGUGACCUUCAAGAAAAUGGAAAUAU`: “RBNS enrichment (R)” 0.287.
For `AAAUGGGUAUGCAAGGCUGAGAUUUCUACAGCAAUAAAGGAGACACACACUGGGCCAGAGAGGCCUGCCUUCUGCCUGCUCUCCUGCACUGACCCUUUGGAGGGGGUCUC`, “RBNS enrichment (R)” read 0.712.
`AGUUCUUUGCCAGGCUGCCUGCCGGAAAAGGUGUAGACAGAUGCUACUAAGACACCAAAUAGUGUCCAUGUAAGAUGGCAACUGCAUUAAAAAAAAAUCAGGAAAAACAA` — result for “RBNS enrichment (R)”: 0.375.
